Experimental data from different studies.
Numbers after ± are the reported error.
Matrix: plasma

For `Cn1c(=O)oc2ccc(-c3ccc(CC(C#N)NC(=O)C4CNCCCO4)c(F)c3)cc21` (stereo not shown), the AUC(0-inf) was 3770 ng·h/mL (human; 20 mg once daily, day 28, geometric mean).
`CN1CCC[C@]1(C)/C=C/S(=O)(=O)NC(=O)Nc1c2c(cc3c1CCC3)CCC2` has an AUC(0-inf) of 219000 ng·h/mL (human; oral, 100 mg twice daily, day 14, multiple ascending dose).
`[2H]C([2H])([2H])NC(=O)c1ccc(N2C(=S)N(c3ccc(C#N)c(C(F)(F)F)c3)C(=O)C2(C)C)cc1F` gave an AUC(0-inf) of 758000 ng·h/mL (healthy male human; oral, 160 mg, fasted, single dose).
`O=C(CCc1ccc(CNC(C(=O)O)C2CCCCC2)cn1)NO` (stereo not shown) has an AUC(0-inf) of 363 ng·h/mL (healthy male humans; oral, 50 mg, single dose, geometric mean).
With `[2H]C([2H])(c1ccc(O)c(O)c1)[C@]([2H])(N)C(=O)O` the AUC(0-inf) was 3470 ng·h/mL (human; oral, 150 mg single, geometric LS mean, added: 37.5 mg carbidopa).
The AUC(0-inf) of `CC(C)(O)c1ncc([S@](N)(=O)=NC(=O)Nc2c3c(cc4c2CCC4)CCC3)s1` is reported as 3170 ng·h/mL (healthy human volunteers; oral, 3 mg single dose, fasted, capsule formulation).
With `CCc1c2c(nc3ccc(O)cc13)-c1cc3c(c(=O)n1C2)COC(=O)[C@]3(O)CC` the AUC(0-inf) was 136 ng·h/mL (human patients; intravenous, 12 mg/m2 of parent drug).
With `CCCOc1ccc(S(N)(=O)=O)cc1-c1nc2c(CCC)nn(C)c2c(=O)[nH]1` the AUC(0-inf) was 4970 ± 2920 ng·h/mL (healthy male humans; oral, 200 mg of udenafil, added: dapoxetine 60 mg).
`CC(=O)N[C@H](CC(=O)O)C(=O)N[C@H](Cc1c[nH]c2ccccc12)C(=O)N[C@H](Cc1ccccc1)C(=O)N[C@H](CCCCN)C(=O)N[C@H](C)C(=O)N[C@H](Cc1ccccc1)C(=O)N[C@H](Cc1ccc(O)cc1)C(=O)N[C@H](CC(=O)O)C(=O)N[C@H](CCCCN)C(=O)N[C@@H](C(=O)N[C@H](C)C(=O)N[C@H](CCC(=O)O)C(=O)N[C@H](CCCCN)C(=O)N[C@H](Cc1ccccc1)C(=O)N[C@H](CCCCN)C(=O)N[C@H](CCC(=O)O)C(=O)N[C@H](C)C(=O)N[C@H](Cc1ccccc1)C(N)=O)C(C)C` has an AUC(0-inf) of 575 ng·h/mL (human, statin-treated high-risk CHD, female; oral, 500 mg daily, day 13, mean, detected subjects only).
The AUC(0-inf) of `O=C(CCc1ccc(CNC(C(=O)OC2CCCC2)C2CCCCC2)cn1)NO` (stereo not shown) is reported as 247 ng·h/mL (human; oral, 60 mg single dose, geometric mean).
